Experimental data collected from several papers.
Each line is one published result; not all experiments were run side by side. ≈ marks a conversion by molar mass, not a printed value.
Sequence of UniProt Q9NRP7 (whole entry, looked up): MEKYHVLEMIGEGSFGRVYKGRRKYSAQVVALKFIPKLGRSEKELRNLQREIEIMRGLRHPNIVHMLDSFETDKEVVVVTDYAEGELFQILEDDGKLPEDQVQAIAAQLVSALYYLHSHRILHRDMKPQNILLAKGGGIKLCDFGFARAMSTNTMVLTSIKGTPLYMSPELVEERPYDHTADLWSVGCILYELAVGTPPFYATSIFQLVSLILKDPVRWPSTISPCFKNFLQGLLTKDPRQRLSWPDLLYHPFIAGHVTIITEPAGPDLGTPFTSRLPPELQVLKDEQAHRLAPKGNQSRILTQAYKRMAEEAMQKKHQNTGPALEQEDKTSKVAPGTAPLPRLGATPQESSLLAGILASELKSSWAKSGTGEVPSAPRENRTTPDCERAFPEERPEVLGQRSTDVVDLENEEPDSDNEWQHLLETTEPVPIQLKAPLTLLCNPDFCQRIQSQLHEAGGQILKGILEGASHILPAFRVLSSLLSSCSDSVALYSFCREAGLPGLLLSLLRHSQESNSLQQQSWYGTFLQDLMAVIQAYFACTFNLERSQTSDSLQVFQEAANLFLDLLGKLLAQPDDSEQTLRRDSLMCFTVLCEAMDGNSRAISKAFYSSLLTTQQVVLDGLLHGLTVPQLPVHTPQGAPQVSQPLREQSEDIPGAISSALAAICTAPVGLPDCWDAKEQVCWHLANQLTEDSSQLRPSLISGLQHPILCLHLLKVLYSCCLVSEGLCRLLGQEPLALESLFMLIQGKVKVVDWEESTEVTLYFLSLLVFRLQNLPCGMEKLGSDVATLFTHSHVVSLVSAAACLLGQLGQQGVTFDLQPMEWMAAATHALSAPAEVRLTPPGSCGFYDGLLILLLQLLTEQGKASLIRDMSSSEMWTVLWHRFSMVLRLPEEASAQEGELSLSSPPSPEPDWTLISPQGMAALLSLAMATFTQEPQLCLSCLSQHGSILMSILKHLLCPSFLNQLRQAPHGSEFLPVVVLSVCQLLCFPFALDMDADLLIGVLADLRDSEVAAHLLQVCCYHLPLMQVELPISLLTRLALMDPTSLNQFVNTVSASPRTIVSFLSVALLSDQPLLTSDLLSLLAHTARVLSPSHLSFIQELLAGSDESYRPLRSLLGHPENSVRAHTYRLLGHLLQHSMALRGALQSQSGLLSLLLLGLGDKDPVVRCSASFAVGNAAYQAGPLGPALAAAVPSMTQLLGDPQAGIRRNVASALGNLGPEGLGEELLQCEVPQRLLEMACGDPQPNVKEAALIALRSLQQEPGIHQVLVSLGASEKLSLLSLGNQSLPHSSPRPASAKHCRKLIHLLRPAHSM
Sequence of UniProt Q59H18 (whole entry, looked up): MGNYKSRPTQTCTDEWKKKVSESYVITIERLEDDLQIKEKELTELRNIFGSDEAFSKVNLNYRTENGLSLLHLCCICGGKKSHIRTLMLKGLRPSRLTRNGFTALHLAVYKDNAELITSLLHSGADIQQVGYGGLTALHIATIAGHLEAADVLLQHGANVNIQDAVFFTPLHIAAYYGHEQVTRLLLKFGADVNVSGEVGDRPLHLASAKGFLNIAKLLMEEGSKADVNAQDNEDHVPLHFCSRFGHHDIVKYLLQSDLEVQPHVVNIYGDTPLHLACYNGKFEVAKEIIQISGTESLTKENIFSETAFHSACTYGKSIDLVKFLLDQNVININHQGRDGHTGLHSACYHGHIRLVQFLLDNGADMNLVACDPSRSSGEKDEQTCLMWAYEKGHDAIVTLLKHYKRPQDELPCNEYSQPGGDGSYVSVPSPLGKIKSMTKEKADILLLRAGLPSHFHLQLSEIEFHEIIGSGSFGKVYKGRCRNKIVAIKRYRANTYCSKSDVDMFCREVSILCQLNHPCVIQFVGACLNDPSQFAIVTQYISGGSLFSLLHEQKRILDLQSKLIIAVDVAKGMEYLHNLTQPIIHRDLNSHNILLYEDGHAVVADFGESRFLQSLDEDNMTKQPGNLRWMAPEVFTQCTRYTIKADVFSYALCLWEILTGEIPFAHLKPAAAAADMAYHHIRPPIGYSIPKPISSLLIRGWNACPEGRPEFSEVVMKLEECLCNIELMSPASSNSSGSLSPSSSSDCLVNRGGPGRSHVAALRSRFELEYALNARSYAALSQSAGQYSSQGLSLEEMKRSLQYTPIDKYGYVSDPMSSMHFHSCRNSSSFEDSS
Sequence of UniProt P10632 (whole entry, looked up): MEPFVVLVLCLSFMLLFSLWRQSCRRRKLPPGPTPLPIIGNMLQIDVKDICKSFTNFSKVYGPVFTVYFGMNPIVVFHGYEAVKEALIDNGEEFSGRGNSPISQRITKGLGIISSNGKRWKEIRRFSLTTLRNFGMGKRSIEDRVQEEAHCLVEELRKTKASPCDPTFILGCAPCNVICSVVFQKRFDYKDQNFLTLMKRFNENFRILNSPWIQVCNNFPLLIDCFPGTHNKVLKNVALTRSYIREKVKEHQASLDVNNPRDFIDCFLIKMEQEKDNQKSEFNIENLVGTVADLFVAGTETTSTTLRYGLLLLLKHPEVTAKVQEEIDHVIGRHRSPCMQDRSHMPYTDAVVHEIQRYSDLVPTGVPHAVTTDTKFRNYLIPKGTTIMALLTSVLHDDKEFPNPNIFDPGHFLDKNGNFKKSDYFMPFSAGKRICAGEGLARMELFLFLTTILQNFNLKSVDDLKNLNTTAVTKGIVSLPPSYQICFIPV
Sequence of UniProt Q8IVH8 (whole entry, looked up): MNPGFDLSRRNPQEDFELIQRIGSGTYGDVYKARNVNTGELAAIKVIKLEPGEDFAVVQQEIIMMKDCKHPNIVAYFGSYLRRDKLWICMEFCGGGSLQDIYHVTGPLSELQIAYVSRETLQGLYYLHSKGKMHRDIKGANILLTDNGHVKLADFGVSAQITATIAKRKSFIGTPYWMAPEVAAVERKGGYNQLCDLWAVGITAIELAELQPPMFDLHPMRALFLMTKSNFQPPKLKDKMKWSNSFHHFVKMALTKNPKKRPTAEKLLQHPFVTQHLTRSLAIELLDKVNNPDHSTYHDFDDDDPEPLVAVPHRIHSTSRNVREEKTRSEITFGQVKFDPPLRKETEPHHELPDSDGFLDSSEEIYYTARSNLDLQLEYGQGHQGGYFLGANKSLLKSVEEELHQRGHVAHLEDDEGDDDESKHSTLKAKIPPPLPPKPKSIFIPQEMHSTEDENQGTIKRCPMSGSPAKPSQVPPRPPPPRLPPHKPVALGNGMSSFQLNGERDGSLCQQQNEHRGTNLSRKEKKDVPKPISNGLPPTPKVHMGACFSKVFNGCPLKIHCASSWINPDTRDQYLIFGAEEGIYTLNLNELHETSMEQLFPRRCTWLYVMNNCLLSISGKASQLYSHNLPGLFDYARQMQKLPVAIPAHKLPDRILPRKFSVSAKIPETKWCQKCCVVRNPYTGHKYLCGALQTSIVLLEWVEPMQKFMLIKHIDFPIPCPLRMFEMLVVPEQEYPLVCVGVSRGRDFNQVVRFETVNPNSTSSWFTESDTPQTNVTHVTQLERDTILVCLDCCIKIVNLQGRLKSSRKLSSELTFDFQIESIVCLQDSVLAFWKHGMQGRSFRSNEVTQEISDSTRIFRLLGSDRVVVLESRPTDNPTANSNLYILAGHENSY
Sequence of UniProt O33336 (whole entry, looked up): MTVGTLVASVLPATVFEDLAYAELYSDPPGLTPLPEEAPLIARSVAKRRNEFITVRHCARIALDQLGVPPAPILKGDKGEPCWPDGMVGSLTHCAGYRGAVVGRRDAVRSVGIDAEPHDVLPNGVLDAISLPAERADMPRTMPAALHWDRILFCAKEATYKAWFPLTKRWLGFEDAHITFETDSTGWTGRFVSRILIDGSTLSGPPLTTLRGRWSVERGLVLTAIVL
Sequence of UniProt Q8TBX8 (whole entry, looked up): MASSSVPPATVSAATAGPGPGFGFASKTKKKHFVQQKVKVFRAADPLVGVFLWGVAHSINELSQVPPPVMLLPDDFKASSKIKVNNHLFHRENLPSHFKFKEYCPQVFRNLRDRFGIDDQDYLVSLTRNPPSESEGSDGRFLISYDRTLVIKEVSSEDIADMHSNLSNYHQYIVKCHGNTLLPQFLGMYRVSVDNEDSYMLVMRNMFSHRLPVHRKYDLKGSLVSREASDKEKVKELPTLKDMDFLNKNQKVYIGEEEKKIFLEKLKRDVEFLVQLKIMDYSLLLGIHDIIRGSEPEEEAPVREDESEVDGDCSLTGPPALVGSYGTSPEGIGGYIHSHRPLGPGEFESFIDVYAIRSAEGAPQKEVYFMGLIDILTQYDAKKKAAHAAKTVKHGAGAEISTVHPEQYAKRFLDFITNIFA

CN[C@@H]1C[C@H]2O[C@@](C)([C@@H]1OC)n1c3ccccc3c3c4c(c5c6ccccc6n2c5c31)C(=O)NC4 — viability (NCI-H1975; cell growth or viability, MTT; 0.4 µg): 70.8%
CC(C)C[C@H](NC(=O)/C=C/c1ccccc1)C(=O)N[C@H](C=O)C[C@@H]1CCCNC1=O — CC50 (A549; cell growth or viability, MTT; 24 h): > 100 µM
C#Cc1ccc2c(c1)C(c1ccccn1)=NCc1c(-c3cnco3)ncn1-2 — kinetic solubility (water; 2 h, 37 °C): 674 µg/mL (≈ 1920 µM)
CC(C)C[C@H]1NC(=O)[C@@H](N)CSSC[C@@H](C(=O)O)NC(=O)[C@H](Cc2ccccc2)NC(=O)[C@H](C)NC(=O)[C@H]([C@@H](C)O)NC(=O)[C@H]2CCCN2C(=O)[C@@H]2CCCN2C(=O)[C@H](C(C)C)NC(=O)[C@H](CCC(=O)O)NC1=O — thermodynamic solubility (aqueous buffer; 18 h, pH 7.4): 712 µM (≈ 767 µg/mL)
NC(=S)c1cncc(Cn2c(=S)[nH]c3cc(CO)c(Cl)cc3c2=O)c1 — IC50 (4'-phosphopantetheinyl transferase PptT (Mycobacterium tuberculosis, UniProt O33336); enzyme activity, inhibitor, FP): 0.238 µM
CC(C)C[C@H](NC(=O)[C@@H](NC(=O)/C=C/c1ccccc1)C(C)C)C(=O)N[C@H](C=O)C[C@@H]1CCCNC1=O — CC50 (A549; cell growth or viability, MTT; 24 h): > 100 µM
Cc1nn(C)cc1-c1nc2c(N3CCN(Cc4ccc(Cl)cc4)CC3)c(Cl)cnc2[nH]1 — remaining binding (TNNI3K (Homo sapiens, UniProt Q59H18); binding, competition with immobilised ligand; 1 µM): 93%
CC(C)C[C@H](NC(=O)[C@H](Cc1ccccc1)NC(=O)[C@H](Cc1ccccc1)NC(=O)Cc1ccc(-c2ccccc2)cc1)C(=O)N[C@@H](CCCCN)C(=O)N[C@@H](CCCNC(=N)N)C(=O)N[C@H](C(=O)N[C@@H](Cc1c[nH]c2ccccc12)C(=O)N[C@@H](CCCCN)C(=O)N[C@@H](CCCNC(=N)N)C(=O)O)C(C)C — half-life (metabolic stability; mouse, liver microsomes; 1 µM): 4.04 min
COc1ncccc1-c1cnn2ccc(N3CCN(C(=O)OC(C)C)CC3)nc12 — remaining binding (MAP4K3 (Homo sapiens, UniProt Q8IVH8); binding, competition with immobilised ligand; 1 µM): 74%
N.N.[Cl][Pt][Cl] — IC50 (SU-DHL-1; cell growth or viability, ATP luminescence; 72 h): 0.3 µM
N=c1c2c(-c3ccccc3)c(-c3ccccc3)n(Cc3ccccc3)c2ncn1[C@H]1CC[C@H](O)CC1 — half-life (male cynomolgus monkey, plasma; oral, 1 mg/kg, single dose): 2920 min
COCC1=N[C@@]2(O)[C@H](C(=O)N(C)OC)[C@@H](c3ccccc3)[C@]3(c4ccc(OC)cc4)Oc4cc(OC)cc(OC)c4[C@]23N1 — kinetic solubility (aqueous buffer; 6 h, pH 7.4): > 87 µg/mL
[2H]c1c([2H])c([C@]2([2H])CCCN2C(=O)C(C)(C)Oc2ccc3cn[nH]c3c2)c([2H])c([2H])c1C([2H])([2H])[2H] — remaining binding (STK36 (Homo sapiens, UniProt Q9NRP7); binding, competition with immobilised ligand; 1 µM): 100%
Nc1ncc(-c2nc(N3CCOCC3)nc(N3CCOCC3)n2)c(C(F)F)n1 — remaining binding (PIP4K2C (Homo sapiens, UniProt Q8TBX8); binding, competition with immobilised ligand; 10 µM): 84%
CC[C@H](C)[C@H]1C(=O)N[C@@H](Cc2ccc(O)cc2)C(=O)N2CCC[C@H]2C(=O)N[C@H]([C@H](C)O)C(=O)N[C@@H](CC(C)C)C(=O)N[C@@H](C(C)C)C(=O)N[C@@H](C)C(=O)N[C@@H](C)C(=O)N[C@@H](CO)C(=O)N[C@@H](CCC(=O)O)C(=O)N[C@H](CC(=O)O)C(=O)N[C@H](C(=O)O)CSSC[C@H](N)C(=O)N1C — solubility (aqueous buffer; 18 h, pH 7.4): 676 µM (≈ 944 µg/mL)
COc1ccc([C@@]23Oc4cc(OC)cc(OC)c4[C@@]24NC(C)=N[C@@]4(O)[C@H](C(=O)N(C)OC)[C@H]3c2ccccc2)cc1 — half-life (metabolic stability; mouse, liver microsomes): 5.1 min
CCC[C@@](N)(CO)CCc1ccc(OCCCCCC(C)C)cc1 — IC50 (Cytochrome P450 2C8 (CYP2C8, Homo sapiens, UniProt P10632); enzyme activity, inhibitor): 39.7 µM
CC(C)C[C@@H]1NC(=O)CNC(=O)[C@H]2CCCN2C(=O)[C@@H](CC(C)C)NC(=O)CNC(=O)[C@H](Cc2ccc(O)cc2)NC(=O)[C@@H](Cc2ccc(O)cc2)NC(=O)[C@@H](CCCCN)NC(=O)[C@H]([C@@H](C)O)NC(=O)[C@@H]2CCCN2C(=O)[C@H](CC(C)C)NC1=O — solubility (aqueous buffer; 18 h, pH 7.4): 631 µM (≈ 759 µg/mL)
